Assay results of several laboratories.
A part holds a random share of what one study measured. Positions count from the first letter of the parent shown.

Sample 1
Target: RNA binding protein fox-1 homolog 2, RRM domain, GST-SBP tag (RBFOX2, Homo sapiens, UniProt O43251-10, residues 100-194)
Technique: RNA Bind-n-Seq
Form: RNA
Sample: in vitro
Concentration: 365 nM
Setting: natural RNA segment, single round, ends assumed
Relative to: no-protein control
Reading: higher = stronger binding
Measurement: RBNS enrichment (R)
Constant ends, left off below: GGGAGUUCUACAGUCCGACGAUC … UGGAAUUCUCGGGUGCCAA
Construct (chain): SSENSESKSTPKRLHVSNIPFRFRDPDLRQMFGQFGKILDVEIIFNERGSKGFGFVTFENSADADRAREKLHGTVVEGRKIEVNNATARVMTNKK
Oligonucleotide = GAAGAUGGGCAACAAAGAGCCAGGGAGUCAUGGACAUCGCAGCGACGCAGACCCCAGCAGGUUCAGUCCCGUGCUGCCACCAGCUGUCCAGCUGGGUGUCUGGAGGGAAG; result = 0.476
Oligonucleotide = UUAUUCCUCUUUGCCUUCUCAAUGUUAAUUUAUUGCAUGGUUUACUCCUUUUCUUUACAGCCGAAAUUGCUUUAAGUGAUGGUUAAAUUGACAAAUUAAGAUGUUAAUUU; result = 1.41
Oligonucleotide = UUUUUUGUGUUAACAGCUUUUUGACACAAUUACUGGGUAAUUUCUAAUAUAGGCAGCAGACUGUUUUACGGGUUGCUGUUUUAACAUGGGUUUUUGUCAGAUCCAUGGUC; result = 0.248
Oligonucleotide = ACACCAGCCCCUUGGCCAGCCUGCCGCAGGCAUCUCAGGGCCAUGCAGAUCCCAGGCUGUGGAUUACGUCACUGCAGGAACUGCUUCUGAAAGGCUUUGGCCUUCCUCAG; result = 0.233
Oligonucleotide = UGUUGCUUCCUGUUUUAGUGUCUGAACUCUGACAGGGUGACAGGGACCUUGCUGGUGUAGUCUUUUUAUAGGUUUUAUAAACCACAUGAGCCUAUAUCAGUCAUUUUAGU; result = 0.365
Oligonucleotide = CUGCCCUUUUGGCAAAGUUACCUUGAACAAAGAAUCUUAAGGGUUUAUUAAGAACUCUUUAUUUUCUUCAUACCCUGUUCUCUGCAGUGCUUUCUAACAGCUUCUGGGUG; result = 0.276
Oligonucleotide = CCUGGGGCGACAGGAGAACCGGUCCUCUCUCUGACGGGGUGGCAUUUGGCCUUGAACAAAACCAAGUCCACUGGGGACAGAGGCAGGGGCAAGUGGCUCUCCCCAUUACC; result = 0.332
Oligonucleotide = GUACCUGGUUCAGAGCAGUCCGGGAUGAUAGGACGAGAUCCUAAAGUUCUUUCAGGGAGCUCUGCCAUGAGAGCAAACAGAGCAUAUCUAUCAUAUGCCACUUUGACGAA; result = 0.269
Oligonucleotide = AAAGUUAUUCAAGUGAAAGAAAGAGAAGGGAAUUGCUUAGUAGGAGUUCUGCAGUAUAGAACAAUUACUUGUAUGAAAUUAUACCUUUGAAUUUUAGAAUGUCAUGUGUU; result = 1.03
Oligonucleotide = UGGAGAAACACACACCUGACACUAUCCACAGAUAUAGUCAAGUAGAUUUGGAUAGAGAAUACUAUUUCCAAAGUAGUGUUUAGCUCAUCUAGGGGGAUGUGUUUAUAUAU; result = 0.365
Oligonucleotide = UUAGUUCUAUUCGUGGUGCUAGGUAGCUUGACAGGUAUGAUAUGCAUAAGUCAUAGCUCUAUUCUUAGUGUCAUAAAGUGUAGCUAAUUUAUAAGCUCUAAGUAAUCAGC; result = 0.704
Oligonucleotide = UUGUGACCCUCAUGUUUCCUGUAAGUCUGUUUCAUGGUAGGGUUCAUACCUGCCUCAGCCUGACAGGAGUAGGUUUUCCGCAACCCACUGUGCUGAGACAGUUGAUGUGA; result = 0.401

Sample 2
Target: Interferon regulatory factor 7, full length, phosphomimetic (IRF7, Homo sapiens, UniProt Q92985, residues 1-503, S101K/S471D/S472D/S475D/S476D/S477D/S483D/S484D/S487D)
UniProt Q92985, sequence (whole entry, unmodified, looked up): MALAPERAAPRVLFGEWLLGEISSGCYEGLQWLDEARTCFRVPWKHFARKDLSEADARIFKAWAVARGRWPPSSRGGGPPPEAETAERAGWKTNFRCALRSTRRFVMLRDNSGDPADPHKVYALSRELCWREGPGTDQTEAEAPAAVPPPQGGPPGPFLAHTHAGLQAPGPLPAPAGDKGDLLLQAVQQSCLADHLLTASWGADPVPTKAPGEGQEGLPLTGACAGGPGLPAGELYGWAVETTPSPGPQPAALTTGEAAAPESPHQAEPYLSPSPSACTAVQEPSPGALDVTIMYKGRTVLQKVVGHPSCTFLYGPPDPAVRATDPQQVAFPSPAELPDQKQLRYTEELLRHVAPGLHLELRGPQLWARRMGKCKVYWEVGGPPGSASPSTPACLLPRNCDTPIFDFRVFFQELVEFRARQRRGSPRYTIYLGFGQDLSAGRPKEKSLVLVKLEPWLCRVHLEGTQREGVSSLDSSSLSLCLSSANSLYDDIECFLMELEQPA
Technique: protein-binding microarray
Form: double-stranded DNA, one strand shown
Sample: in vitro
Concentration: 250 nM
Setting: 60-bp whole probe
Together with: salmon DNA 0.4 mg/ml
Relative to: random background probes
Reading: higher = stronger binding
Measurement: log fluorescence
Constant ends, left off below: GCCTAGCAC … GTCTTGATTCGCTTGACGCTGCTG
Oligonucleotide = GACGATCTCAGGATCGAGACGTGCTAG; result = -0.166 z-score
Oligonucleotide = GACGGTTTCGGTTTCTGGACGTGCTAG; result = 14.1 z-score
Oligonucleotide = TCAAGTTTCTTTTCTTTACTGTGCTAG; result = 6.62 z-score
Oligonucleotide = GACGAACAGAGTATCGAGACGTGCTAG; result = 0.00771 z-score
Oligonucleotide = TTAGGTATCGGGACTGGGTTGGTGCTA; result = 0.238 z-score
Oligonucleotide = TTAGAACTGGGTTATCGATTAGTGCTA; result = 0.121 z-score
Oligonucleotide = GACCATCTCAGTATCGAGACGTGCTAG; result = 0.484 z-score
Oligonucleotide = GACGGTCTCGGTCTCGCGACGTGCTAG; result = 0.81 z-score
Oligonucleotide = GACGATATCAGTATCGATACGTGCTAG; result = 0.374 z-score
Oligonucleotide = TTAGGTTTGGGTTTCGGTTAGTGCTAG; result = 7.11 z-score
Oligonucleotide = GACGGTGTCCTACTGCTGACGTGCTAG; result = -0.45 z-score
Oligonucleotide = TTAGGTATCGGTCTCGGTTCGTGCTAG; result = 4.29 z-score
Oligonucleotide = GAGGGTTTCGGGTATCGGGACGTGCTA; result = 5.61 z-score
Oligonucleotide = AGTAATGACCTTCTCAGGAGGTGCTAG; result = -0.0655 z-score
Oligonucleotide = TTACGTATCCTTCTCCTTTAGTGCTAG; result = 0.748 z-score
Oligonucleotide = GACGGACTGCTACTGCGGACGTGCTAG; result = -0.699 z-score
Oligonucleotide = TTAGGTTTCGGTCTCGGTGAGTGCTAG; result = 7.26 z-score
Oligonucleotide = TTAGAACTGGGGGATCGATTAGTGCTA; result = 0.676 z-score
Oligonucleotide = TCATTTTTTCTTTTATTACTGTGCTAG; result = 1.99 z-score
Oligonucleotide = TAAGGTTTCCAATCAGCCCCGTGCTAG; result = 3.19 z-score
Oligonucleotide = GTAGGTCTCGGACTGGGTTAGTGCTAG; result = -0.0899 z-score
Oligonucleotide = GACGGTTTCGGTTATCGGGACGTGCTA; result = 10.6 z-score
Oligonucleotide = GACGGTTTCGACTTTCGCGACGTGCTA; result = 10.3 z-score
Oligonucleotide = CTAGGTTTCCTACTGCTTTAGTGCTAG; result = 1.43 z-score
Oligonucleotide = GACGGACTGGGACTGTGGACGTGCTAG; result = -0.661 z-score

Sample 3
Target: Prothrombin, mature alpha-thrombin (F2, Homo sapiens, UniProt P00734)
Technique: aptamer microarray, sandwich
Form: DNA with 2'F-ANA
Sample: in vitro
Concentration: 200 nM
Setting: whole 15-mer aptamer, many near background
Together with: Cy3 exosite-II aptamer, 400 nM
Reading: higher = stronger binding
Measurement: mean fluorescence intensity
Oligonucleotide: GGTTGGTGTGGTTGG
Modification = 2'F-ANA at 2 3 4 6 8 10 12 13; result = 210 a.u.
Modification = 2'F-ANA at 3 4 6 8 10 11 12 14 15; result = 140 a.u.
Modification = 2'F-ANA at 1 2 4 5 7 8 9 12 13 14; result = 45.7 a.u.
Modification = 2'F-ANA at 2 3 5 8 9 11 13 14 15; result = 55.2 a.u.
Modification = 2'F-ANA at 1 2 5 6 8 9 12 13; result = 92.3 a.u.
Modification = 2'F-ANA at 2 5 7 9 12; result = 159 a.u.
Modification = 2'F-ANA at 4 6 7 12 13 14 15; result = 98.4 a.u.
Modification = 2'F-ANA at 2 3 5 6 7 9 10 13 15; result = 57.2 a.u.
Modification = 2'F-ANA at 3 4 6 7 8 13 14 15; result = 302 a.u.
Modification = 2'F-ANA at 1 3 5 6 10 12; result = 47 a.u.
Modification = 2'F-ANA at 2 4 8 10 11 13 14 15; result = 58.2 a.u.
Modification = 2'F-ANA at 1 2 6 8 11 12 14 15; result = 65.2 a.u.
Modification = 2'F-ANA at 2 4 7 8 9 11 13 14; result = 92.4 a.u.
Modification = 2'F-ANA at 3 5 6 10 15; result = 53.8 a.u.
Modification = 2'F-ANA at 4 7 9 11 12 13 15; result = 298 a.u.
Modification = 2'F-ANA at 1 3 4 7 8 10 13 14; result = 82.8 a.u.
Modification = 2'F-ANA at 2 3 5 7 10 11 12 15; result = 64 a.u.
Modification = 2'F-ANA at 2 3 4 5 6 7 8 12 13 14 15; result = 60 a.u.
Modification = 2'F-ANA at 2 8; result = 519 a.u.
Modification = 2'F-ANA at 2 4 7 8 11 14 15; result = 152 a.u.
Modification = 2'F-ANA at 2 3 5 6 7 8 9 10 12 13 14 15; result = 52.3 a.u.
Modification = 2'F-ANA at 1 3 5 7 8 9 11 13 15; result = 54.7 a.u.
Modification = 2'F-ANA at 1 2 3 8 10 11 12 14 15; result = 52.4 a.u.
Modification = 2'F-ANA at 1 2 4 5 7 12 14 15; result = 47.8 a.u.
Modification = 2'F-ANA at 2 3 4 5 6 8 9 10 11 12 13 15; result = 57.1 a.u.

Sample 4
Target: ABI1, truncated, D143A, DHFR fusion (Arabidopsis thaliana)
Technique: DHFR PCA, deep sequencing
Sample: yeast
Setting: methotrexate growth selection, single substitutions
Together with: (+)-ABA 0.11 µM
Relative to: wild-type fitted maximum
Reading: higher = stronger binding
Measurement: relative binding score
Starting sequence: PYL1, truncated, DHFR fusion (Arabidopsis thaliana); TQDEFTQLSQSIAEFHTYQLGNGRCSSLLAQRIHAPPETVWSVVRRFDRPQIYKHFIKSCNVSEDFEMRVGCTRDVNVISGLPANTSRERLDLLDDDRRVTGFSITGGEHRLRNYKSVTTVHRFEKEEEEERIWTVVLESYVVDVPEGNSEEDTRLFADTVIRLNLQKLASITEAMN; partner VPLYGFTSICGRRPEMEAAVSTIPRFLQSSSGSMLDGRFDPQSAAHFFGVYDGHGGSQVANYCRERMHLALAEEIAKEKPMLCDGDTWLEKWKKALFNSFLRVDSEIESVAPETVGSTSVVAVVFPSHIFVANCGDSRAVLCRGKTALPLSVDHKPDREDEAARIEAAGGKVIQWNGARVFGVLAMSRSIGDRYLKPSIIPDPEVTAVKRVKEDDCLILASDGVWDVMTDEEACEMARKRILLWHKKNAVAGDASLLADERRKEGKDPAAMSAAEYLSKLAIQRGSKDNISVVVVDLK
Variant = P36H; result = 33.2%
Variant = T17H; result = -1.73%
Variant = A35H; result = -3.35%
Variant = S117L; result = -1.9%
Variant = R123D; result = 13.2%
Variant = S87M; result = 34%
Variant = D3K; result = 14.2%
Variant = F56T; result = -7.09%
Variant = E89L; result = -2.34%
Variant = W41T; result = -4.75%
Variant = R90G; result = -2.96%
Variant = L20V; result = 58.2%
Variant = R113S; result = 14.8%
Variant = L20T; result = 54.9%
Variant = A35F; result = -4%
Variant = Y18W; result = 25.8%
Variant = F124N; result = 1%

Sample 5
Organism: Saccharomyces cerevisiae
Observed: pheromone growth arrest
Technique: yeast competitive growth sequencing
Form: peptide
Strain: no Cln2 overexpression
Setting: peptide tiling library
Reading: direction not given
Measurement: enrichment score
Sequence = GLPDFVFQQQPVESEA; result = 0.342
Sequence = IVLICAKRSLCAAFSV; result = -0.559
Sequence = KPKPVKPVTFSTGIKM; result = 0.523
Sequence = SAVPLILPQAPSGPSY; result = 0.131
Sequence = KPHVSDEEEEEPPFYH; result = 0.273
Sequence = TARRIFQEPTEPKTKA; result = 0.0222
Sequence = DTERAHSTLDEDLERW; result = 0.255
Sequence = DGCSPIKNWSPMRL; result = 0.677
Sequence = VLVRTSACRSLFGPVD; result = -0.0972
Sequence = PARRRLRLSVDEVSSP; result = 0.136
Sequence = PAKRRLELGE; result = 0.408
